Experimental data pooled from the literature.
Lines come from different studies, so protocols differ. Numbers after ± are the reported error.
Matrix protein 2 S31N: Matrix protein 2 (Influenza A virus, UniProt P0DOF5, S31N)

CC1CC(c2ccc(C(=O)O)cn2)=NN1c1ccc(C#N)c(Cl)c1 (centres unmarked)
EC50 (SARS-CoV-2; viral replication; Calu-3, B.1.617.2 Delta variant; 72 h): 89.8 µM

Nc1ncc(CNC23CC4CC(CC(C4)C2)C3)s1
inhibition (Matrix protein 2 S31N; channel activity, inhibitor; concentration not given, S31N mutant): inactive

O=C(NC1CCN(c2ncnc3[nH]cnc23)CC1)c1cccc(NS(=O)(=O)c2ccc(C(F)(F)F)cc2)c1
EC50 (SARS-CoV-2; viral replication; A549-ACE2, Wuhan-Hu-1): 0.064 to 0.302 µM

CCC1CC(c2ccc(C(=O)O)cc2C)=NN1c1ccc(C#N)c(Cl)c1 (centres unmarked)
EC50 (SARS-CoV-2; viral replication; Calu-3, B.1.617.2 Delta variant; 72 h): 4.2 µM

Cc1ccc(N2CC3CCC(C2)N3C)cc1C(=O)N[C@H](C)c1cc(-c2cnn(C)c2)nc2ccccc12
EC50 (SARS-CoV-2; viral replication; Nsp5 L50F/E166A/L167F): 0.22 µM

CC1CC(c2ccc(S(N)(=O)=O)cc2)=NN1c1ccc(C#N)c(Cl)c1 (centres unmarked)
EC50 (SARS-CoV-2; viral replication; Calu-3, B.1.617.2 Delta variant; 72 h): > 100 µM

O=C(CCCCCCCCCCc1ccc(O)c(O)c1)c1c(O)cccc1O
EC50 (SARS-CoV-2; viral replication, MTT; HEK293T ACE2, Alpha B.1.1.7): 5.2 µM

N#Cc1ccc(N2N=C(c3ccc(C(=O)O)cc3)CC2C2CCCC2)cc1Cl (centres unmarked)
EC50 (SARS-CoV-2; viral replication; Calu-3, B.1.617.2 Delta variant; 72 h): 12.7 µM

Oc1ccc(CCCCCCCCC(O)c2c(O)cccc2O)cc1O (centres unmarked)
EC50 (SARS-CoV-2; viral replication, MTT; HEK293T ACE2, Delta B.1.617.2): 8.3 µM

CC(C)C(=O)OC[C@H]1O[C@@](C#N)(n2ccc(N)nc2=O)[C@H](O)[C@@H]1O
EC50 (SARS-CoV-2; Calu-3, Delta): 2.5 ± 0.1 µM

COc1ccc2c(O)c(C(=O)Nc3ccc(CN)cc3)ccc2c1
EC50 (SARS-CoV-2; viral replication; D614G): 5.3 ± 1.01 µM

N#CC1(c2ccc3c(N)ncnn23)OC(COP(=O)(O)OP(=O)(O)OP(=O)(O)O)C(O)C1O (centres unmarked)
EC50 (SARS-CoV-2; viral RNA copies; Vero C1008, Omicron BA.1; 48 h): 1.82 ± 0.08 µM

CC(=O)Oc1ccc(CCCCCCCCC(=O)c2c(OC(C)=O)cccc2OC(C)=O)cc1OC(C)=O
EC50 (SARS-CoV-2; viral replication, MTT; HEK293T ACE2, Alpha B.1.1.7): 1.4 µM

COc1ccc2ccc(C(=O)Nc3ccc(CN)cc3)c(O)c2c1
EC50 (SARS-CoV-2; viral replication; D614G): 8.36 ± 2.52 µM

Cn1cc(CNC23CC4CC(CC(C4)C2)C3)nn1
inhibition (Matrix protein 2 S31N; proton channel activity, inhibitor; Influenzavirus A, S31N mutant; 100 µM): 28%

O=c1[nH]cnc2c(C3NC(COP(=O)(O)OP(=O)(O)OP(=O)(O)O)C(O)C3O)c[nH]c12 (centres unmarked)
EC50 (SARS-CoV-2; viral RNA copies; Vero C1008, Omicron BA.1; 48 h): 0.41 ± 0.03 µM

O=C(CCCCCCc1ccc(O)c(O)c1)c1c(O)cccc1O
EC50 (SARS-CoV-2; viral replication, MTT; HEK293T ACE2, Gamma P.1): 7.2 µM

Excerpt of the above:
O=C(NC1CCN(c2ncnc3[nH]cnc23)CC1)c1cccc(NS(=O)(=O)c2ccc(C(F)(F)F)cc2)c1
EC50 (SARS-CoV-2; viral replication; A549-ACE2, Wuhan-Hu-1): 0.064 to 0.302 µM
